Experimental data collected from several papers.
Compare with care: the assays were run in different laboratories.
Organism: Mycobacterium tuberculosis

| SMILES | assay | test system | setting | MIC |
| --- | --- | --- | --- | --- |
| CCOc1cc(/C=N/NC(=O)c2ccncc2)ccc1OC(=O)CN1C(=O)CSC1=O | microbial growth, resazurin | H37RV | – | 0.283 µM |
| COc1ccc2ncc(F)c(C[C@H](O)[C@H]3OC[C@H](NCc4cc5c(nn4)OCCS5)CO3)c2n1 | microbial growth | H37RV | – | 4 µg/mL |
| Cc1ccc2nc(C)c(C(=O)C(=O)N(C)C)n2c1 | microbial growth | H37RV | 5 days | > 20 µM |
| Cc1nc2ccc(OC(F)(F)F)cn2c1C(=O)NCc1ccc2oc(-c3ccc(OC(F)(F)F)cc3)nc2c1 | optical density | H37Rv | 144 h | > 25 µM |
| O=c1c(Cl)c(Cl)cnn1Cc1ccccc1 | bacterial growth | H37Rv, Sauton's medium | – | 490 µM |
| CCc1ccn2c(C(=O)NCc3ccccc3)c(C)nc2c1 | microbial growth | H37RV | 5 days | 0.02 µM |
| O=C(CN1C(=O)CSC1=O)Oc1ccc(/C=N/NC(=O)c2ccncc2)cc1Cl | Alamar blue | 192 | – | 0.144 µM |
| Clc1ccc(CCNc2cc(-c3ccccn3)nc3cc(C4CC4)nn23)cc1 | microbial growth | H37RV | – | 42 µM |
| CCCCNc1c(Cl)cnn(-c2ccccc2)c1=O | bacterial growth | H37Rv, 7H9 medium with OADC | – | > 900 µM |
| CCc1nc2ccc(OC(F)(F)F)cn2c1C(=O)NCc1ccc2oc(-c3ccc(OC(F)(F)F)cc3)nc2c1 | optical density | H37Rv | 144 h | > 25 µM |
| COc1ccc2ncc(F)c(C[C@H](O)[C@H]3OC[C@H](NCc4ccc5c(c4)OCCO5)CO3)c2c1 | microbial growth | H37RV | – | 2 µg/mL |
| Cc1nn(-c2ccccc2)c(C)c1/N=N/c1nnc(S)s1 | microbial growth, resazurin | H37RV | 5 days | > 64 µg/mL |
| Cc1nc2cc(C(F)(F)F)ccn2c1C(=O)NCc1ccc2oc(-c3ccc(OC(F)(F)F)cc3)nc2c1 | optical density | H37Rv | 144 h | > 25 µM |
| O=C(CN1C(=O)CSC1=O)Oc1ccc(/C=N/NC(=O)c2ccncc2)cc1Br | Alamar blue | 192 | – | 0.524 µM |
| Cc1ccc2nc(C)c(CC(=O)NCc3ccccc3)n2c1 | microbial growth | H37RV | 5 days | > 20 µM |
| COc1c(N2CC3CCCNC3C2)c(F)cc2c(=O)c(C(=O)OCc3ccc([N+](=O)[O-])s3)cn(C3CC3)c12 (centres unmarked) | microbial growth | H37RV | – | 2 to 8 µM |
| CN[C@@H]1[C@H](O)[C@H](NC)[C@H]2O[C@]3(O)[C@H](O[C@@H]2[C@H]1O)O[C@H](C)C[C@H]3NC(=O)Cc1cscn1 | microbial growth, broth dilution | H37RV | – | 1.6 µg/mL |
| Cc1[nH]n(-c2ccccc2)c(=O)c1/N=N/c1nnc(S)s1 | microbial growth, resazurin | H37RV | 5 days | > 64 µg/mL |
| CCc1nc2ccccn2c1C(=O)NCc1ccc2oc(-c3ccc(OC(F)(F)F)cc3)nc2c1 | optical density | H37Rv | 144 h | > 25 µM |
| O=C1NN(c2ccccc2)C(=O)C1/N=N/c1nnc(S)s1 (centres unmarked) | microbial growth, resazurin | H37RV | 5 days | > 64 µg/mL |
| Cc1ccc(-c2nc3ccc(C)cn3c2C(=O)C(=O)NCc2ccc(N(C)C)cc2)cc1 | microbial growth | H37RV | 5 days | > 20 µM |
| CCOc1cc(/C=N/NC(=O)c2cccnc2)ccc1OC(=O)CN1C(=O)CSC1=O | Alamar blue | 192 | – | 1160 µM |
| CCSc1cnn(-c2ccccc2)c(=O)c1Cl | bacterial growth | H37Rv, Sauton's medium | – | 940 µM |
| COc1ccc2ncc(F)c(CC[C@@]3(O)CO[C@@H]4[C@@H](NCc5ccc(C)cc5)CO[C@@H]43)c2n1 | microbial growth | H37RV | – | 8 µg/mL |

| SMILES | assay | test system | setting | MIC |
| --- | --- | --- | --- | --- |
| CCOc1c(Cl)cnn(-c2ccccc2)c1=O | bacterial growth | H37Rv, 7H9 medium with OADC | – | 1000 µM |
| NC(=S)N/N=C/c1ccc(OC(=O)CC2SC(=O)NC2=O)cc1 (centres unmarked) | microbial growth, resazurin | H37RV | – | 2.84 µM |
| CCc1nc2ccc(C(F)(F)F)cn2c1C(=O)NCc1ccc2oc(-c3ccc(OC(F)(F)F)cc3)nc2c1 | optical density | H37Rv | 144 h | > 25 µM |
| Clc1ccc(CCNc2cc(-c3nccs3)nc3nncn23)cc1 | microbial growth | H37RV | 5 days | 55 µM |
| O=C1NNC(=O)C1/N=N/c1nnc(S)s1 | microbial growth, resazurin | H37RV | 5 days | > 64 µg/mL |
| O=C(CN1C(=O)CSC1=O)Oc1ccc(/C=N/NC(=O)c2cccnc2)cc1Br | Alamar blue | 192 | – | 268 µM |
| Cc1ccc2nc(C)c(CC(=O)NCc3ccc(N(C)C)cc3)n2c1 | microbial growth | H37RV | 5 days | 0.7 µM |
| CCC(CO)NCCNC(CC)CO.O=C(CN1C(=O)CSC1=O)Oc1ccc(C=NNC(=O)c2ccccn2)cc1Br | growth in combination | 192 | with: reference drug at 1/2 MIC | 0.5 µg/mL |
| Nc1ccc(S(=O)(=O)c2ccc(NCCS(=O)(=O)Oc3ccc(S(N)(=O)=O)cc3N)cc2)cc1 | – | pabC deletion mutant | concentration not given, 12 days | 6.25 µM |
| COc1c(Cl)cnn(-c2cccc(C)c2)c1=O | bacterial growth | H37Rv, 7H9 medium with OADC | – | > 1000 µM |
| COc1ccc2nccc(CC[C@H]3OC[C@H](NCc4ccc(Cl)c(Cl)c4)CO3)c2c1 | microbial growth | H37RV | – | ≤ 1 µg/mL |
| Cc1nc(=S)[nH]c(C)c1/N=N/c1nnc(S)s1 | Microplate Alamar Blue | H37Rv | 5 days, 37 °C | 4 µg/mL |
| CCc1ccn2c(C(=O)NCc3ccc(C)cc3)c(C)nc2c1 | microbial growth, resazurin | H37RV | – | < 0.195 µM |
| CC(C)C[C@H](NC(=O)[C@@H](N)CO)C(=O)N[C@@H](CCC(=O)O)C(=O)N[C@H](C(=O)N[C@H](C(=O)N[C@@H](CCC(=O)O)C(=O)N[C@@H](C)C(=O)N[C@@H](CC(=O)O)C(=O)O)[C@@H](C)OP(=O)(O)O)C(C)C | – | H37Rv | – | > 200 µg/mL |
| COc1c(N2CC3CCCN(C(=O)OCc4cnc([N+](=O)[O-])s4)C3C2)c(F)cc2c(=O)c(C(=O)O)cn(C3CC3)c12 (centres unmarked) | microbial growth | H37RV | – | 0.25 µM |
| Cc1nc2cc(OC(F)(F)F)ccn2c1C(=O)NCc1ccc2oc(-c3ccc(Cl)cc3)nc2c1 | optical density | H37Rv | 144 h | > 10 µM |
| Cc1nc(=S)[nH]c(C)c1/N=N/c1nnc(S)[nH]1 | Microplate Alamar Blue | H37Rv | 5 days, 37 °C | 4 µg/mL |
| COc1cc(C=NNC(=O)c2ccncc2)ccc1OC(=O)CN1C(=O)CSC1=O.NNC(=O)c1ccncc1 | growth in combination | H37Rv | with: reference drug at 1/2 MIC | 0.0312 µg/mL |
| O=c1c(N2CCCC2)c(Cl)cnn1-c1ccccc1 | bacterial growth | H37Rv, 7H9 medium | – | 450 µM |
| CCc1nc2ccc(Br)cn2c1C(=O)NCc1ccc2oc(-c3ccc(OC(F)(F)F)cc3)nc2c1 | optical density | H37Rv | 144 h | 0.4 µM |
| COc1ccc2nccc(CC[C@H]3OC[C@H](NC(=O)c4ccc(C(C)(C)C)cc4)CO3)c2c1 | microbial growth | H37RV | – | 8 µg/mL |
| CCCCN(CCCC)CC(O)COc1c2ccoc2c(OC)c2oc(CC)cc(=O)c12 (centres unmarked) | microbial growth, resazurin | H37RV | 21 days | 16 µg/mL |
| Cc1nc2cc(Br)ccn2c1C(=O)NCc1ccc2oc(-c3ccc(OC(F)(F)F)cc3)nc2c1 | optical density | H37Rv | 144 h | > 10 µM |

Repeated from above:
| SMILES | assay | test system | setting | MIC |
| --- | --- | --- | --- | --- |
| O=C(CN1C(=O)CSC1=O)Oc1ccc(/C=N/NC(=O)c2ccncc2)cc1Br | Alamar blue | 192 | – | 0.524 µM |
| Cc1ccc2nc(C)c(C(=O)C(=O)N(C)C)n2c1 | microbial growth | H37RV | 5 days | > 20 µM |
| COc1ccc2ncc(F)c(C[C@H](O)[C@H]3OC[C@H](NCc4ccc5c(c4)OCCO5)CO3)c2c1 | microbial growth | H37RV | – | 2 µg/mL |
| O=C1NNC(=O)C1/N=N/c1nnc(S)s1 | microbial growth, resazurin | H37RV | 5 days | > 64 µg/mL |
| Clc1ccc(CCNc2cc(-c3nccs3)nc3nncn23)cc1 | microbial growth | H37RV | 5 days | 55 µM |
